Results collected from several papers.
Every numbered part comes from another study and shows a few of its results, in no order.
Sequence of UniProt P06239 (whole entry, looked up): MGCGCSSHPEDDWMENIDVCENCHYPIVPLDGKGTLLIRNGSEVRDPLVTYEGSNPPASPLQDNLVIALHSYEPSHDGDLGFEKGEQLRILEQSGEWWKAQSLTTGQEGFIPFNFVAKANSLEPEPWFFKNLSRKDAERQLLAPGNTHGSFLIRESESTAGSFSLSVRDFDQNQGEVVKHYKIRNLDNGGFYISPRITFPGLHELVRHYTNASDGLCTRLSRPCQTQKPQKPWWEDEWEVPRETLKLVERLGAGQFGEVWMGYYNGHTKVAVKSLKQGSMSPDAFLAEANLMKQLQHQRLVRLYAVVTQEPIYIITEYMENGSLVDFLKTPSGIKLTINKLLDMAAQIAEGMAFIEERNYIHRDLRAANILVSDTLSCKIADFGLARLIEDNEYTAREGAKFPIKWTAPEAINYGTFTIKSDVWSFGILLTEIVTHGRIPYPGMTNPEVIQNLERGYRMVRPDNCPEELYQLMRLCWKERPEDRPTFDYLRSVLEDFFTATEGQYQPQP
Sequence of UniProt Q86UX6 (whole entry, looked up): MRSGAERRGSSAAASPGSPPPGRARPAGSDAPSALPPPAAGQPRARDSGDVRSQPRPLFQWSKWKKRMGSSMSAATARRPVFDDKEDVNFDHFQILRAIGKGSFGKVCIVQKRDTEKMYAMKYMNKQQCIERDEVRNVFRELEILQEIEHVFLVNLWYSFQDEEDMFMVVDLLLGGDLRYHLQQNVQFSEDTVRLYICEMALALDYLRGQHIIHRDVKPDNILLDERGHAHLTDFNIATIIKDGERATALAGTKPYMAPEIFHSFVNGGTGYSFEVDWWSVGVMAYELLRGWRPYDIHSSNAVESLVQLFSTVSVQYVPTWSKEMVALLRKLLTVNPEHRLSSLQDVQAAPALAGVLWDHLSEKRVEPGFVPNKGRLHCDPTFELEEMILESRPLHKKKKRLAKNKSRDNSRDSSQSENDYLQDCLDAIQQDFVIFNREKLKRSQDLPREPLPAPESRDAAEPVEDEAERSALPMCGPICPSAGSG
Sequence of UniProt Q13873 (whole entry, looked up): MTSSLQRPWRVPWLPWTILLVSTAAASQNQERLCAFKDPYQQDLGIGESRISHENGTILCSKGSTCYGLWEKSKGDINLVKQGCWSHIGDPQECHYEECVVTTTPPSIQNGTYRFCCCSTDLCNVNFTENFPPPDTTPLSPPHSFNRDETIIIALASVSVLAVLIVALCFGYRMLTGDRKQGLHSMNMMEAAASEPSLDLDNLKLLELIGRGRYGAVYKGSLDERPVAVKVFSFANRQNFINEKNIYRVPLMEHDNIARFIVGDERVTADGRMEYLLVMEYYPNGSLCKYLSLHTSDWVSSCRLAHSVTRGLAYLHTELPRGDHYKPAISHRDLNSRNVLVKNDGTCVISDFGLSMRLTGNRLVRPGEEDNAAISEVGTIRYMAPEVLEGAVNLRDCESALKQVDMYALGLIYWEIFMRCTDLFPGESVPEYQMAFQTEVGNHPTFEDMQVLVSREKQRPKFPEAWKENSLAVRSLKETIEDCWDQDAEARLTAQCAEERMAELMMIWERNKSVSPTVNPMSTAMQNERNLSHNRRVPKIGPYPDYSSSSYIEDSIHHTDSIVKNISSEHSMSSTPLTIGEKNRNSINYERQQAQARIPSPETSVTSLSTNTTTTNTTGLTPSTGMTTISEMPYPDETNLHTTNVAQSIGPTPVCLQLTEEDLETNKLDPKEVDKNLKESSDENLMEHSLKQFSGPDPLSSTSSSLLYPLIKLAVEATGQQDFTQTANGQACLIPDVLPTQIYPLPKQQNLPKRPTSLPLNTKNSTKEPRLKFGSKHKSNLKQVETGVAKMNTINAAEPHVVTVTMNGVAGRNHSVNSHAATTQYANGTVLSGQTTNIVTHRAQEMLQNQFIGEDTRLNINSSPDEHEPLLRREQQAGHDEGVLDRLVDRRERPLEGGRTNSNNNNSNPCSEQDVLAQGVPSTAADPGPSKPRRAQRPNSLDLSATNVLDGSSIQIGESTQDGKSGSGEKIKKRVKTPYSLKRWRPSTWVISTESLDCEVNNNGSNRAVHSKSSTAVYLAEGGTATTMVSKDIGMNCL
Sequence of UniProt Q9HC98 (whole entry, looked up): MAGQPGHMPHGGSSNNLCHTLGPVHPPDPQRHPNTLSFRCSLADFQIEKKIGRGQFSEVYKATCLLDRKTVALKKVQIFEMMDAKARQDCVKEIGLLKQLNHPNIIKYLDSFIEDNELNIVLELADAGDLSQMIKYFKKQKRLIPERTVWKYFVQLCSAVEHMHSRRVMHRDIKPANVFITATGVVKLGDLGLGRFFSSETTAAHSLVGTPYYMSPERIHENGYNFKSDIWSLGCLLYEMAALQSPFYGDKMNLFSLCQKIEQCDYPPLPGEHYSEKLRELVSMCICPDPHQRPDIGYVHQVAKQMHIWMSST
Sequence of UniProt Q12866 (whole entry, looked up): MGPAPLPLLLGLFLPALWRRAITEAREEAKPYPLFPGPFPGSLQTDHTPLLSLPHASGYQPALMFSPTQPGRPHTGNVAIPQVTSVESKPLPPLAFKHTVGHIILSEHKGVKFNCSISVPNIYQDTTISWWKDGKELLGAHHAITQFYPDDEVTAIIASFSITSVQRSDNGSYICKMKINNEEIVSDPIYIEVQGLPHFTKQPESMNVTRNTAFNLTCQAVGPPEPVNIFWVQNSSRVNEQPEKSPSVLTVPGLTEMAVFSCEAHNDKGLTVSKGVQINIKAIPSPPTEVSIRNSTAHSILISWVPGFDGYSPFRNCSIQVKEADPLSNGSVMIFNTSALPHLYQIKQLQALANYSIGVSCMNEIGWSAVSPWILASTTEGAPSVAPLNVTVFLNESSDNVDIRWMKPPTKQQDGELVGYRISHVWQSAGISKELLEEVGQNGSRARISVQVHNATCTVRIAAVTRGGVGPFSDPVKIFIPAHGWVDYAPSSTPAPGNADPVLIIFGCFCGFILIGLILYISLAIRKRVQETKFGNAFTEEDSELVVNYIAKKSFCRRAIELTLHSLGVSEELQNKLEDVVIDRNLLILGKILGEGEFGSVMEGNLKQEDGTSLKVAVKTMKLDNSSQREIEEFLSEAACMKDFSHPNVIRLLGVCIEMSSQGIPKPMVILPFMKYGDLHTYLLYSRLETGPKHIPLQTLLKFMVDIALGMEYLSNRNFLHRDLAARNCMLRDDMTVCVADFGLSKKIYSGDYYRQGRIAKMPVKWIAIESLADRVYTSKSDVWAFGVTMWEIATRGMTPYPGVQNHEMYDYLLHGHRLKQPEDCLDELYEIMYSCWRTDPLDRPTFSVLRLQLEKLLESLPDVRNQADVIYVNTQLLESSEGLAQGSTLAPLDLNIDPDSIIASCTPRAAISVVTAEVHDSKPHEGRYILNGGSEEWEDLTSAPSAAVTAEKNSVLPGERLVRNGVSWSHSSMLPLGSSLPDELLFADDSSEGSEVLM
Sequence of UniProt Q6P3R8 (whole entry, looked up): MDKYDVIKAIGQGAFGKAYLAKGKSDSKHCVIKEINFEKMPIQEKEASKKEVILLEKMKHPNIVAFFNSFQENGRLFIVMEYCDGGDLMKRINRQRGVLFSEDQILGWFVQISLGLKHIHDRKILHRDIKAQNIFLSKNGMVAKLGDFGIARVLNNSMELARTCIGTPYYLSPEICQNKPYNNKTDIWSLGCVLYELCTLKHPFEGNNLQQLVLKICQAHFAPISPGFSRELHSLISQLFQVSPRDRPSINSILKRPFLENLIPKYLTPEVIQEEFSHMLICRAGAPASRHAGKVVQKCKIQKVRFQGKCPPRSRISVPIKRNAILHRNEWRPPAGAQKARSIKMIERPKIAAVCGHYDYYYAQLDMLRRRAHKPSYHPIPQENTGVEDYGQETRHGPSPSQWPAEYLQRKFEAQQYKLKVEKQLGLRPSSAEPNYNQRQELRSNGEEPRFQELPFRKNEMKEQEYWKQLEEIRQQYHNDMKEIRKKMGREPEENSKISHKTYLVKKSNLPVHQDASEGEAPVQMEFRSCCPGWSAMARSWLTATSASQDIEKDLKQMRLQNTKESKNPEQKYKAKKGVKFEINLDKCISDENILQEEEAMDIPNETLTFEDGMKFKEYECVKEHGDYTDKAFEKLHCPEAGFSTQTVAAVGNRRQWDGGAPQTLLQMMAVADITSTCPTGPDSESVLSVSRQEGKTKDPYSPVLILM
Sequence of UniProt P49841 (whole entry, looked up): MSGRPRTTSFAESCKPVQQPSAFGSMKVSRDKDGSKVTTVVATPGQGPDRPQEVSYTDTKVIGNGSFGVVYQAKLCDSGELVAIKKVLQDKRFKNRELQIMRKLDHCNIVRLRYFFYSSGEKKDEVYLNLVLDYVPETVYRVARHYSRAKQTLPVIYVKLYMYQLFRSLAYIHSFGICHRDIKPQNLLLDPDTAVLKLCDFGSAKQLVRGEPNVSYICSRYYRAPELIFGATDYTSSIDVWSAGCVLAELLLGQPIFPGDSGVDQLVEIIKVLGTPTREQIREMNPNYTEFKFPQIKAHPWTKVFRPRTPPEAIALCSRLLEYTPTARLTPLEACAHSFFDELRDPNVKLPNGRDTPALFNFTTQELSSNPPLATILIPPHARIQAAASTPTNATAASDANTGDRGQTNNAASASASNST

Sample 1 — cell line: A-375; tested at: 100 µM; time: 18 h
Structure (SMILES) | viability [%]
COc1ccccc1OCC(O)CN1CCN(CC(=O)Nc2c(C)cccc2C)CC1 (stereo not shown) | 84.8
COCCCC/C(=N\OCCN)c1ccc(C(F)(F)F)cc1 | 8.71
CCCOc1ccc(C(=O)OCCN(CC)CC)cc1N | 85.2
CC1=C(/C=C/C(C)=C/C=C/C(C)=C/C=C/C=C(C)/C=C/C=C(C)/C=C/C2=C(C)CCCC2(C)C)C(C)(C)CCC1 | 65.1
O[C@H]1[C@H](O)[C@@H](O)[C@H](O)[C@@H](O)[C@H]1O | 108

Sample 2 — read-out: enzyme activity; action: inhibitor; tested at: 10 µM
Target: Calcium/calmodulin-dependent protein kinase type II subunit alpha (CAMK2A, Homo sapiens, UniProt Q9UQM7)
Sequence of UniProt Q9UQM7 (whole entry, looked up): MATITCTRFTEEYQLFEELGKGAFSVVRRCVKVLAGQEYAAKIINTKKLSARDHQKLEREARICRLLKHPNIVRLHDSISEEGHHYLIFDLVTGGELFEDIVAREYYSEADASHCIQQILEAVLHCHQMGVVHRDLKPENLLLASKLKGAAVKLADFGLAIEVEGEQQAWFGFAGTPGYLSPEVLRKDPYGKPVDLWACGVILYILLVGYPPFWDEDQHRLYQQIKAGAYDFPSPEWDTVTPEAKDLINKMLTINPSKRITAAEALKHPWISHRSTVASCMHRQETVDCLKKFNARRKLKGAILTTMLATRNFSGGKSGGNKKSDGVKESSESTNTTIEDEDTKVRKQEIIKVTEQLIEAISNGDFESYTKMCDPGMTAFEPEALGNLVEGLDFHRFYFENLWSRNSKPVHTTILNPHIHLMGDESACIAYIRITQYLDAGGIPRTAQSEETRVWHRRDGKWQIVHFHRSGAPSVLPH
Compound | inhibition
COc1ccc(CCO[C@@H]2CCCC[C@H]2N2CC[C@@H](O)C2)cc1OC | -10%
Cc1ncc([N+](=O)[O-])n1CC(C)O (stereo not shown) | -3%
CCCCCC/C(C=O)=C\c1ccccc1 | -20%
COC(=O)Nc1nc2cc(C(=O)c3ccc(F)cc3)ccc2[nH]1 | -8%
C=C1C[C@@]23CC[C@H]4[C@@](C)(CCC[C@@]4(C)C(=O)O[C@@H]4O[C@H](CO)[C@@H](O)[C@H](O[C@@H]5O[C@H](CO)[C@@H](O)[C@H](O)[C@H]5O)[C@H]4O[C@@H]4O[C@H](CO)[C@@H](O)[C@H](O)[C@H]4O)[C@@H]2CC[C@]1(O[C@@H]1O[C@H](CO)[C@@H](O)[C@H](O[C@@H]2O[C@H](CO)[C@@H](O)[C@H](O)[C@H]2O)[C@H]1O[C@@H]1O[C@H](CO)[C@@H](O)[C@H](O)[C@H]1O)C3 | -14%
Cc1c(O)c(C)c2c(c1O)C(=O)C[C@@H](c1ccc(O)cc1)O2 | -37%

Sample 3 — Compound: O=C1c2ccccc2-c2nc3nnnn3nc21; read-out: enzyme activity; action: inhibitor; tested at: 0.5 µM; reference: control
target | remaining activity [%]
ULK3 (Homo sapiens, UniProt Q6PHR2) | 103
ACVR1B (Homo sapiens, UniProt P36896) | 113
LCK (Homo sapiens, UniProt P06239) | 70.5
MERTK (Homo sapiens, UniProt Q12866) | 93.1
FGFR1 (Homo sapiens, UniProt P11362) | 24.2
FGFR3 (Homo sapiens, UniProt P22607) | 26.7
MAP2K2 (Homo sapiens, UniProt P36507) | 94.7
GSK3B (Homo sapiens, UniProt P49841) | 83.5
FRK (Homo sapiens, UniProt P42685) | 33.9
CSNK1G3 (Homo sapiens, UniProt Q9Y6M4) | 80.3
NEK6 (Homo sapiens, UniProt Q9HC98) | 96.3
MST1R (Homo sapiens, UniProt Q04912) | 93.6
TBK1 (Homo sapiens, UniProt Q9UHD2) | 87

Sample 4 — read-out: cell-free assay; technique: competition with immobilised ligand; tested at: 1 µM
SMILES: O=C(Nc1cccnn1)N1CC(C/C=C/c2cncc(Oc3ccc(C(F)(F)F)cn3)n2)C1
target | remaining binding
BMPR2 (Homo sapiens, UniProt Q13873) | 76%
SBK1 (Homo sapiens, UniProt Q52WX2) | 89%
STK32C (Homo sapiens, UniProt Q86UX6) | 100%
NEK5 (Homo sapiens, UniProt Q6P3R8) | 100%

Excerpt of the above (sample 1):
Structure (SMILES) | viability [%]
CCCOc1ccc(C(=O)OCCN(CC)CC)cc1N | 85.2
CC1=C(/C=C/C(C)=C/C=C/C(C)=C/C=C/C=C(C)/C=C/C=C(C)/C=C/C2=C(C)CCCC2(C)C)C(C)(C)CCC1 | 65.1
O[C@H]1[C@H](O)[C@@H](O)[C@H](O)[C@@H](O)[C@H]1O | 108
COCCCC/C(=N\OCCN)c1ccc(C(F)(F)F)cc1 | 8.71
